Published values from different studies.
Compare with care: the assays were run in different laboratories. “And” joins repeats or separate records; there may be more than shown. ± marks the error that the study gave.
Chain of UniProt Q12809 (whole entry, looked up): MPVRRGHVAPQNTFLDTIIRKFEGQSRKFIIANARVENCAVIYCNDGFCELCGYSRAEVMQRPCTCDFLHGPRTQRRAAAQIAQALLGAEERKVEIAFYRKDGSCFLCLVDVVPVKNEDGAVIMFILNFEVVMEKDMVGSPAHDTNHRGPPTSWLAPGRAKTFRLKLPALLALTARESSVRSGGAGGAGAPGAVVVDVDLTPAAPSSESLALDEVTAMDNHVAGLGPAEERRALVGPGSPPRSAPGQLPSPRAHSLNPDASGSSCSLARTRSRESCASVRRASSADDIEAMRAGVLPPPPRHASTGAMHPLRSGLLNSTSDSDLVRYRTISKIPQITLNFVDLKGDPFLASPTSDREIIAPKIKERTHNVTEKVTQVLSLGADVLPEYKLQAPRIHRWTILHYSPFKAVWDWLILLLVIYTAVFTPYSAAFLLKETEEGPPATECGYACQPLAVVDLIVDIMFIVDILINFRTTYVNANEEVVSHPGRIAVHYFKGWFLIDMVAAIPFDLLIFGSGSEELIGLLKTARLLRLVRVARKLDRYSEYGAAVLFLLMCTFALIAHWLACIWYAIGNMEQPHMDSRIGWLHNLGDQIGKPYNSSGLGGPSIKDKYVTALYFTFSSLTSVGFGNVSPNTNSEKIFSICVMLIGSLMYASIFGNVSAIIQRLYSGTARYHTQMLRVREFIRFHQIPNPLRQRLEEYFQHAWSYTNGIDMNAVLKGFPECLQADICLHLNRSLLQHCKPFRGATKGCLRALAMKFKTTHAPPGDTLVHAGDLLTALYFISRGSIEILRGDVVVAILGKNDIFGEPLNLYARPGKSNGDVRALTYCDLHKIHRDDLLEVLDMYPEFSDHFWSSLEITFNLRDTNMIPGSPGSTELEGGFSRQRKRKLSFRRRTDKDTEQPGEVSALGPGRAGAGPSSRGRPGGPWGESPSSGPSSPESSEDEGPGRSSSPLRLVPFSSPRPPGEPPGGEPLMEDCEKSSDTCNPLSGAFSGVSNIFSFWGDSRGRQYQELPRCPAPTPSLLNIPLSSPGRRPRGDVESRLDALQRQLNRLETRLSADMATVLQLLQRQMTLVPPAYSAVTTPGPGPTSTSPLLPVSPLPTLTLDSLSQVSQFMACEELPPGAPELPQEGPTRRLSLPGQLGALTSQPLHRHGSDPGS

SMILES | target or system | assay | test system | setting | how to read | endpoint | value
C[C@@H]1Cc2c(Cl)cc(C(=O)N[C@H](Cc3ccccc3)C(=O)O)c(O)c2C(=O)O1 |  |  | chicken embryo | in ovo injection, 0.75 µg/egg |  | body weight to egg weight ratio | 73.1 ± 3.8
CC[C@H](C)[C@H](NC(=O)[C@H](CC(C)C)NC(=O)[C@H](Cc1c[nH]c2ccccc12)NC(=O)[C@H](CCC(N)=O)NC(=O)[C@@H](NC(=O)[C@H](Cc1ccccc1)NC(=O)[C@H](C)NC(=O)[C@H](CCCCNC(=O)COCCOCCNC(=O)COCCOCCNC(=O)CC[C@H](NC(=O)CCCCCCCCCCCCCCCCCCC(=O)O)C(=O)O)NC(=O)[C@H](CCC(N)=O)NC(=O)[C@H](C)NC(=O)[C@@H](NC(=O)[C@H](CCCCN)NC(=O)[C@H](CC(=O)O)NC(=O)[C@H](CC(C)C)NC(=O)C(C)(C)NC(=O)[C@@H](NC(=O)[C@H](CO)NC(=O)[C@H](Cc1ccc(O)cc1)NC(=O)[C@H](CC(=O)O)NC(=O)[C@H](CO)NC(=O)[C@@H](NC(=O)[C@H](Cc1ccccc1)NC(=O)[C@@H](NC(=O)CNC(=O)[C@H](CCC(=O)O)NC(=O)C(C)(C)NC(=O)[C@@H](N)Cc1ccc(O)cc1)[C@@H](C)O)[C@@H](C)O)[C@@H](C)CC)[C@@H](C)CC)C(C)C)C(=O)N[C@@H](C)C(=O)NCC(=O)NCC(=O)N1CCC[C@H]1C(=O)N[C@@H](CO)C(=O)N[C@@H](CO)C(=O)NCC(=O)N[C@@H](C)C(=O)N1CCC[C@H]1C(=O)N1CCC[C@H]1C(=O)N1CCC[C@H]1C(=O)N[C@@H](CO)C(N)=O |  | item: Dizziness | healthy subjects | 5/5/8/10 mg titrated, multiple ascending dose |  | subjects with adverse events | 0%
CC[C@H](C)[C@H](NC(=O)[C@H](C)NC(=O)[C@H](CCC(=O)O)NC(=O)[C@H](CCC(=O)O)NC(=O)[C@H](CC(C)C)NC(=O)[C@H](CCCCN)NC(=O)[C@H](CCCCN)NC(=O)[C@H](CCSC)NC(=O)[C@H](CCC(=O)O)NC(=O)[C@H](Cc1ccc(O)cc1)NC(=O)[C@H](CCC(=O)O)NC(=O)[C@H](CC(C)C)NC(=O)[C@H](CC(=O)O)NC(=O)[C@H](CC(C)C)NC(=O)[C@H](Cc1ccccc1)NC(=O)[C@@H](NC(=O)[C@@H](NC(=O)[C@H](CC(N)=O)NC(=O)[C@@H](NC(=O)[C@H](CCC(N)=O)NC(=O)[C@H](CC(=O)O)NC(=O)[C@H](CC(C)C)NC(=O)[C@@H](N)CO)[C@@H](C)CC)C(C)C)[C@@H](C)O)C(=O)N[C@@H](CCCCN)C(=O)N[C@@H](CCCCN)C(=O)N[C@@H](CC(C)C)C(=O)N[C@@H](CCC(=O)O)C(=O)N[C@@H](CCC(=O)O)C(=O)N[C@@H](CO)C(=O)N[C@@H](Cc1ccc(O)cc1)C(=O)N[C@H](C(=O)N[C@@H](CC(=O)O)C(=O)N[C@@H](CC(C)C)C(=O)N[C@@H](CCCCN)C(=O)N[C@@H](CCC(=O)O)C(=O)N[C@@H](CC(C)C)C(=O)NCC(=O)N[C@@H](CO)C(=O)NCC(=O)N[C@@H](CO)C(=O)NCC(=O)NCCOCCOCCOCCOCCC(=O)N[C@@H](CSCC(=O)O[C@H]1CC[C@@]2(C)C(=CC[C@H]3[C@@H]4CC[C@H]([C@H](C)CCCC(C)C)[C@@]4(C)CC[C@@H]32)C1)C(N)=O)[C@@H](C)CC | SARS-CoV-2 | pseudovirus infection |  | concentration not given, 4 °C, storage |  | fold reduction of activity | ~44 fold
CC(=O)c1c(O)c(C)c(O)c(Cc2c(O)c3c(c(C(=O)/C=C/c4ccccc4)c2O)OC(C)(C)C=C3)c1O | Voltage-gated inwardly rectifying potassium channel KCNH2 (KCNH2, Homo sapiens, UniProt Q12809) | ion current, activator, whole-cell patch clamp | HEK293 expressing hERG1 | 15 µM | relative to: untreated | activation rate | 2.4 ± 0.3 fold
O=C1O[C@H]2[C@@H]3OC(=O)c4cc(O)c(O)c(O)c4-c4c(cc(O)c(O)c4O)C(=O)OC[C@H]2O[C@@H](OC(=O)c2cc(O)c(O)c(O)c2)[C@@H]3OC(=O)c2cc(O)c(O)c3c2[C@@H]2C1=CC(=O)[C@](O)(O3)C2(O)O | Spike glycoprotein (Severe acute respiratory syndrome coronavirus 2, UniProt P0DTC2) | binding, biolayer interferometry |  |  |  | Kd | 2.03 µM
CC(C)(C)[C@H](NC(=O)C(F)(F)F)C(=O)N1C[C@H]2[C@@H]([C@H]1C(=O)N[C@H](C#N)C[C@@H]1CCNC1=O)C2(C)C | Calu-3 |  |  | 48 h |  | CC50 | 106 µM
CC(C)C[C@H](NC(=O)[C@H](CCCCN)NC(=O)[C@H](CCCCN)NC(=O)[C@H](CC(C)C)NC(=O)[C@H](CCCCN)NC(=O)[C@H](CC(C)C)NC(=O)[C@H](CC(C)C)NC(=O)CNC(=O)[C@H](CC(C)C)NC(=O)[C@H](CC(C)C)NC(=O)[C@H](CC(C)C)NC(=O)[C@H](CCCCN)NC(=O)[C@@H](N)CCCCN)C(=O)O | HEK-293T | cell death |  | 24 h, 10% cell death |  | lowest cytotoxic concentration | 256 µg/mL
Nc1ncnc2c([C@@H]3N[C@H](CO)[C@@H](O)[C@H]3O)c[nH]c12 | Marburg virus | viral replication | HeLa, Angola | 6.3 µM |  | inhibition | 62.3%
CC(C)(C)[C@H](NC(=O)C(F)(F)F)C(=O)N1C[C@H]2[C@@H]([C@H]1C(=O)N[C@H](C#N)C[C@@H]1CCNC1=O)C2(C)C |  |  | healthy humans, fasted, plasma | oral, 150 mg single dose |  | AUC(0-inf) | 2250 ng·h/mL
CC[C@H](C)[C@H](NC(=O)[C@H](CC(C)C)NC(=O)[C@H](Cc1c[nH]c2ccccc12)NC(=O)[C@H](CCC(N)=O)NC(=O)[C@@H](NC(=O)[C@H](Cc1ccccc1)NC(=O)[C@H](C)NC(=O)[C@H](CCCCNC(=O)COCCOCCNC(=O)COCCOCCNC(=O)CC[C@H](NC(=O)CCCCCCCCCCCCCCCCCCC(=O)O)C(=O)O)NC(=O)[C@H](CCC(N)=O)NC(=O)[C@H](C)NC(=O)[C@@H](NC(=O)[C@H](CCCCN)NC(=O)[C@H](CC(=O)O)NC(=O)[C@H](CC(C)C)NC(=O)C(C)(C)NC(=O)[C@@H](NC(=O)[C@H](CO)NC(=O)[C@H](Cc1ccc(O)cc1)NC(=O)[C@H](CC(=O)O)NC(=O)[C@H](CO)NC(=O)[C@@H](NC(=O)[C@H](Cc1ccccc1)NC(=O)[C@@H](NC(=O)CNC(=O)[C@H](CCC(=O)O)NC(=O)C(C)(C)NC(=O)[C@@H](N)Cc1ccc(O)cc1)[C@@H](C)O)[C@@H](C)O)[C@@H](C)CC)[C@@H](C)CC)C(C)C)C(=O)N[C@@H](C)C(=O)NCC(=O)NCC(=O)N1CCC[C@H]1C(=O)N[C@@H](CO)C(=O)N[C@@H](CO)C(=O)NCC(=O)N[C@@H](C)C(=O)N1CCC[C@H]1C(=O)N1CCC[C@H]1C(=O)N1CCC[C@H]1C(=O)N[C@@H](CO)C(N)=O |  |  | human, plasma | subcutaneous, 10.0 mg once weekly, week 15, multiple doses |  | Cmax | 2200 ng/mL
Cn1cnc(Cn2c(=O)[nH]/c(=N\c3cc4cn(C)nc4cc3Cl)n(Cc3cc(F)c(F)cc3F)c2=O)n1 |  |  | human, severe renal impairment | oral, 375 mg, decreased GFR TEAE, mild severity |  | patients with adverse event | 0%
CNC(=O)[C@@H](NC(=O)[C@H](CC(C)C)[C@H](O)C(=O)NO)C(C)(C)C | Daboia russelii venom proteases (SVMP) | protease activity, inhibitor | MP population | 0.001 µM, together with: azocasein substrate | relative to: venom alone | remaining activity | 96.4% and 100% and 94.7%
